Measured values from different studies.
Every numbered part comes from another study and shows a few of its results, in no order. Substitutions count along the parent as printed.

Study 1 — method: protein-binding microarray; molecule type: double-stranded DNA, one strand shown; medium: in vitro; concentration: 0.8 µM; notes: whole 60-bp probe, no competitor; reading: higher = stronger binding; shared flanks, not repeated: … GTCTTGATTCGCTTGACGCTGCTG
Target: Centromere-binding protein 1, full length, N-terminal tag (CBF1, Saccharomyces cerevisiae, UniProt P17106, residues 1-351)
Sequence of UniProt P17106 (whole entry, looked up): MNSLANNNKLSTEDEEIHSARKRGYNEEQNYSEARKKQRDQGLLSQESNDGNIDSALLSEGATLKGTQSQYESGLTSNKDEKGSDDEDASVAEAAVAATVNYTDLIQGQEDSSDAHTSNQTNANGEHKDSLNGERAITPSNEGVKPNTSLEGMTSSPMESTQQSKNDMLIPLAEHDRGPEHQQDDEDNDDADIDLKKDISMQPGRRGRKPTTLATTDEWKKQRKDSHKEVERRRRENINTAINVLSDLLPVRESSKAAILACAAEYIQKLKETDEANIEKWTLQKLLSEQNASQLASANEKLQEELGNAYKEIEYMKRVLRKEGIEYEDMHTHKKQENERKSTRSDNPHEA
Sequence	fluorescence intensity [a.u.]
GAAGTATGTATGCATCAGCAGATTGACCGGTAATAG	526
GAAATCTTCAATGGACCCGTGCTTTGTAACCCGTAG	646
CTAGTAAAAGCACGTGATATTGCCTTTTTCTTTTTC	14600
GAAAGGAGACACCGCCACCACCTGAGCCTCCATTAG	497
GAATTTTTTTTTTTCCTTGTGATTGTTTATTTATAG	628
TGTACGAAGCTATGTCACGTGTTTATAGTAGTTAGG	16100
CTATGTAGCCTTTGTTACGTGAATAACTTACTTTTC	520
GAAAGTGCACTACGTGACAAAAATAAAAAGTGTTAG	918
CTAGACGACGACGACCACGAAACACCTTTGATTTTC	518
GAAAACATTGGTGGTGGTCTGACATATTTTTTATAG	620
CTAATTGGGACAAGTCACGAACAATTTTAGAGATTC	582
TGTACGAAGCTATCTCTGATGACTATAGTAGTTAGG	474
CTAGCAAATTACCATGTGAGCGTGCGGGAATAATTC	943
CTAGGTAGTAATGGTGATGAAATGTTGTTACTTTTC	478
CTAAGTATTGTATCGCACGTTTCTTTTTTGTTTTTC	662
GAAAATTTACTCTGTGACAATGATAAGCCAGATTAG	617
GAAGCTCCTAAATGTCACCCTATAGAAAAAAAATAG	631
GAACATATAGTCAGTCATGAGAATATATATTTATAG	611
CTACTGTTATTCTGCTTGACCACGAATGTACTGTTC	598
GAATTTCCAAAGTCCCACGTTTAATAACCCACATAG	569
CTAAGAGACTACGCAGACGTGACGGTCATCTAGTTC	563
CTAGTATTCGCACTTAGCGTGCTCGCAACACAATTC	513
CTACATGTGAAAACGGTGATGATAGTAAAAAAATTC	554
GAATGTGCGGATTCTGATGTAATTGTTGGGATTTAG	479

Study 2 — method: protein-binding microarray; molecule type: double-stranded DNA, one strand shown; medium: in vitro; concentration: 2200 nM top; notes: 60-bp whole probe; with: salmon DNA 0.4 mg/ml; reference: random background probes; reading: higher = stronger binding; shared flanks, not repeated: GCCTAGCAC … GTCTTGATTCGCTTGACGCTGCTG
Target: Interferon regulatory factor 7, full length, phosphomimetic (IRF7, Homo sapiens, UniProt Q92985, residues 1-503, S471D/S472D/S475D/S476D/S477D/S483D/S484D/S487D)
Residues (chain): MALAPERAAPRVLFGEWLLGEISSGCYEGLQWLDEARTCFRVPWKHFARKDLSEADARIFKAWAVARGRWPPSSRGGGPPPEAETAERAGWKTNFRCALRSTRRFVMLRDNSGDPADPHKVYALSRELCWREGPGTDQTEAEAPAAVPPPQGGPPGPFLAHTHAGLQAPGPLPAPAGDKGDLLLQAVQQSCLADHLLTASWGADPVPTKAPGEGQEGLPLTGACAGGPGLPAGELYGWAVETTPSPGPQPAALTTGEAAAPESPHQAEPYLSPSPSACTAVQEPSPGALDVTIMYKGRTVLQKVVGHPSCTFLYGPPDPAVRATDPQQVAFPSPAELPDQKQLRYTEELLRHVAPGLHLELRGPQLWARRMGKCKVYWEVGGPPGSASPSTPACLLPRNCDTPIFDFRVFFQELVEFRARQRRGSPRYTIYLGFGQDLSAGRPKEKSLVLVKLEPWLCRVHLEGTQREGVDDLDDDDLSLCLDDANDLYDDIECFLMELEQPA
Sequence	fitted relative affinity [z-score]
TCAGCTCTTGTTTTCACACTGTGCTAG	1.96
TTAGGTTGCGACTTTCGGTTAGTGCTA	6.2
GACGGTACCCTACTGCTGACGTGCTAG	0.138
GACCATTTCAGACTGGAGACGTGCTAG	0.553
GACGGTATAGACTATCGGGACGTGCTA	-0.0406
TCAAATGCCCTTTTGGTACTGTGCTAG	0.642
GAAGAACTGAGTCTCGAGACGTGCTAG	-0.432
CCCAATAATCTTTTCACTTTGTGCTAG	2.12
GACGGCATCCTTCTCCTGACGTGCTAG	0.361
TTAGATTTCAGTTTAGATTAGTGCTAG	2.07
TTAGGTATCGGGACTGGGTTCGTGCTA	-0.311
GACGGACTGCTTTTCCTGAGGTGCTAG	0.165
TCATTTTTTTTTGTATTACTGTGCTAG	2.2
TACGGTATCGGTTTCGGGACGTGCTAG	4.33
TTAGATTCCAGTTTCGATGAGTGCTAG	3.01
TTAGGTATCCTATTCCTTTAGTGCTAG	1.1
TAAGGTTTCGACTATCGGTTAGTGCTA	3.1
TTAGGTTTCCTTAACCTTTAGTGCTAG	0.732

Study 3 — target: CCNB1, cyclin fold, Cln2 fusion (human); method: yeast growth competition, sequencing; medium: yeast; notes: weak parent motif; reference: not given; reading: higher = stronger binding
Starting sequence: CDKN1A docking peptide (human); SKACRRLFGPVDS
Substitution	normalised enrichment score
F8I	0.407
F8M	0.449
A3Y	0.115
F8C	0.224
A3R	0.121
G9T	0.302
R5W	0.096
A3F	-0.0986
R6H	0.103
A3W	0.344
F8N	0.0605
K2C	0.011
L7M	0.394
R6E	0.0679
G9Y	0.643
K2E	0.416
L7G	0.257

Study 4 — method: protein binding microarray; molecule type: double-stranded DNA, one strand shown; medium: in vitro; concentration: not given; reference: not given; reading: higher = stronger binding
Target: Histone acetyltransferase KAT6A, winged helix 1, GST fusion (KAT6A, Homo sapiens, UniProt Q92794, residues 1-85)
Notes: 8-mer, flanks averaged, mean of 2 arrays, mostly near background
Residues (chain): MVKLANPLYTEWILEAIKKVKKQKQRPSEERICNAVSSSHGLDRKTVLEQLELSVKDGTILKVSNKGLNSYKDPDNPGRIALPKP
Sequence	E-score
CACTGCTC	-0.146
ATAGCCGG	0.23
CGACGGTA	0.381
CTGTCATC	-0.107
GAGTGACC	-0.129
AAATATGT	-0.0353
GAAATAAC	-0.203
GCCATGAC	0.00912
ATGATGGG	-0.244
TCATGGAA	-0.188
CAGACTTA	-0.137
AGATAGGC	-0.223
CGTACCGA	0.151
ATAATTTC	-0.0678
TTCTGAAA	-0.0549
TACGGAGA	0.0354
CAACTTGC	-0.0968
GAAAGACA	-0.0526
ACTAAGAA	-0.017
TATACGCA	0.0474
TAGCGGCA	0.399
GATGAAGC	-0.0235
AGGTCCCC	0.104
ACAAGCAT	-0.215
ACAGCTGG	-0.0884

Study 5 — method: aptamer microarray, sandwich; molecule type: DNA with 2'F-ANA; medium: in vitro; concentration: 200 nM; with: Cy3 exosite-II aptamer, 400 nM; reading: higher = stronger binding; sequence: GGTTGGTGTGGTTGG
Target: Prothrombin, mature alpha-thrombin (F2, Homo sapiens, UniProt P00734)
Notes: whole 15-mer aptamer, many near background
Modification	mean fluorescence intensity
2'F-ANA at 7 9 10 11 12 14	120 a.u.
2'F-ANA at 1 3 4 5 9 11 12 13	127 a.u.
2'F-ANA at 1 5 8 9 14	51.1 a.u.
2'F-ANA at 1 2 3 9 10 11 12 14	54 a.u.
2'F-ANA at 1 2 3 4 7 8 10 11	59.9 a.u.
2'F-ANA at 2 3 4 6 7 8 10 11 12 13 14	176 a.u.
2'F-ANA at 2 5 6 7 8 11 12 13 14 15	51.2 a.u.
2'F-ANA at 3 9 10 14 15	377 a.u.
2'F-ANA at 1 2 6 7 10 12 13 14	47.7 a.u.
2'F-ANA at 1 4 8 10 12 13 14	46.1 a.u.
2'F-ANA at 8 9 11 14	185 a.u.
2'F-ANA at 5 8 11 12 13 14	51.6 a.u.
2'F-ANA at 1 2 4 6 7 8 12 13 14 15	62.4 a.u.
2'F-ANA at 2 3 9 10 12 15	419 a.u.
2'F-ANA at 1 3 4 9 10 12 14	65.4 a.u.
2'F-ANA at 1 2 4 8 9 10 11 12 13 14	54.6 a.u.
2'F-ANA at 2 3 4 5 6 8 9 11 12 14 15	56.9 a.u.
2'F-ANA at 5 7 12 14	50.8 a.u.
2'F-ANA at 1 3 4 8 11 13 14	108 a.u.
2'F-ANA at 1 2 3 4 5 6 8 9 10 11 13	47.7 a.u.
2'F-ANA at 2 5 6 7 8 11 13 14 15	70.5 a.u.
2'F-ANA at 1 3 6 8 10	78.1 a.u.
2'F-ANA at 2 3 4 6 8 9 10 11 14	153 a.u.
2'F-ANA at 2 4 6 9 12 13 14 15	87.9 a.u.

A few entries again (study 4):
Sequence	E-score
GCCATGAC	0.00912
ATGATGGG	-0.244
TCATGGAA	-0.188
CAGACTTA	-0.137
AGATAGGC	-0.223
CGTACCGA	0.151
ATAATTTC	-0.0678
TTCTGAAA	-0.0549
TACGGAGA	0.0354
CAACTTGC	-0.0968
GAAAGACA	-0.0526
